Experimental data of several laboratories.
Parts stem from different laboratories: compare values within a part only. Values joined by “and” are separate records of one study, mostly repeats; a detail may differ.
Sequence of UniProt Q9UQM7 (whole entry, looked up): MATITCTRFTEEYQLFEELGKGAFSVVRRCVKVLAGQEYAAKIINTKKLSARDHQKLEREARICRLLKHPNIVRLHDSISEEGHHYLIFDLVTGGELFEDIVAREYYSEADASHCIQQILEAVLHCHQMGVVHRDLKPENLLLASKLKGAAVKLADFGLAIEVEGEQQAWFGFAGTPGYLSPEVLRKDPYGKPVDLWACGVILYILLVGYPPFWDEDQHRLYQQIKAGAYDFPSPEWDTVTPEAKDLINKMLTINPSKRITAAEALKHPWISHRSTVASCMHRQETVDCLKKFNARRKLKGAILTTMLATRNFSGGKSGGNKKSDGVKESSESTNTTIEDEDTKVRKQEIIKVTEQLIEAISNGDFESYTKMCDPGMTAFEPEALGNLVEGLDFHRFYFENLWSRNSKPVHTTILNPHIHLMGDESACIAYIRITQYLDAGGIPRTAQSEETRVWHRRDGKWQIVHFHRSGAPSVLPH
Sequence of UniProt P04629 (whole entry, looked up): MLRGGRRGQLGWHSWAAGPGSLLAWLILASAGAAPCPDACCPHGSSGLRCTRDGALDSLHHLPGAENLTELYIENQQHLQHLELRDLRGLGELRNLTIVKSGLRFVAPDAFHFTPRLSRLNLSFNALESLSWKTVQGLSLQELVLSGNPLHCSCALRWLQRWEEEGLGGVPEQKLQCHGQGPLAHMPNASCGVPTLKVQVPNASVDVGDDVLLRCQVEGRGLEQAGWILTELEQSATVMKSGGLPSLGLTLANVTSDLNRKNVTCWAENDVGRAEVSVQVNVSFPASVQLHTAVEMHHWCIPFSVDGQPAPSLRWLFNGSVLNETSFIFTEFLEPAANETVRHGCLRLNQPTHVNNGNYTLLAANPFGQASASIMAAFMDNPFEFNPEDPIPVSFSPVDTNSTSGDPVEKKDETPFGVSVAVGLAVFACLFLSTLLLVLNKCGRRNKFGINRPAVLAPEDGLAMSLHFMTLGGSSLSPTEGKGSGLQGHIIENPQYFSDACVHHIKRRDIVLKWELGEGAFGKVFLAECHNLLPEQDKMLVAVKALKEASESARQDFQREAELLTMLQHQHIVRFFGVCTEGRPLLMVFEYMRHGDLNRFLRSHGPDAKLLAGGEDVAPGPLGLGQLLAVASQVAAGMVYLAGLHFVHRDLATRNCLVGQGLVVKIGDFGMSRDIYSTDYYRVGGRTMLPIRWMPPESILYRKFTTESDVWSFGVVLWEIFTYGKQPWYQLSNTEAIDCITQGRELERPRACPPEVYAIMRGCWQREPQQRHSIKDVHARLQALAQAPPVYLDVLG
Sequence of UniProt P78362 (whole entry, looked up): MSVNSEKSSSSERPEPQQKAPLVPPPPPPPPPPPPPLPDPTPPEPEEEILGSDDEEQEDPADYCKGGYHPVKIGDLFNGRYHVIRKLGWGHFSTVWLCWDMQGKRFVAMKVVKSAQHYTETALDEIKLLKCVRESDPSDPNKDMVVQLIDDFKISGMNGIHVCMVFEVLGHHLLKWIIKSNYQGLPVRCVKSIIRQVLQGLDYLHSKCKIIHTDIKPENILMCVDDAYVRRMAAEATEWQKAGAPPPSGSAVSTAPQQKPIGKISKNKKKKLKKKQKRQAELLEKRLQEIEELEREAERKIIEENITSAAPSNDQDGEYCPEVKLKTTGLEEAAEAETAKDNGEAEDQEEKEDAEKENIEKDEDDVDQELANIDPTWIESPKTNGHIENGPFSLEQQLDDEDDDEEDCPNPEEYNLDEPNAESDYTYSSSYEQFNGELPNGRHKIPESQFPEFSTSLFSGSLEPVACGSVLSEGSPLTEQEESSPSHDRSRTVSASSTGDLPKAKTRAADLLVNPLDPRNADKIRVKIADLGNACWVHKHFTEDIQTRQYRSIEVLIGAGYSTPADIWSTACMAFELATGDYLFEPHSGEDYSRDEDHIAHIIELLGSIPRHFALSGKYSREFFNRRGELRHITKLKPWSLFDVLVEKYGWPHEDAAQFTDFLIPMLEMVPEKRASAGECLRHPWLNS
Sequence of UniProt P15056 (whole entry, looked up): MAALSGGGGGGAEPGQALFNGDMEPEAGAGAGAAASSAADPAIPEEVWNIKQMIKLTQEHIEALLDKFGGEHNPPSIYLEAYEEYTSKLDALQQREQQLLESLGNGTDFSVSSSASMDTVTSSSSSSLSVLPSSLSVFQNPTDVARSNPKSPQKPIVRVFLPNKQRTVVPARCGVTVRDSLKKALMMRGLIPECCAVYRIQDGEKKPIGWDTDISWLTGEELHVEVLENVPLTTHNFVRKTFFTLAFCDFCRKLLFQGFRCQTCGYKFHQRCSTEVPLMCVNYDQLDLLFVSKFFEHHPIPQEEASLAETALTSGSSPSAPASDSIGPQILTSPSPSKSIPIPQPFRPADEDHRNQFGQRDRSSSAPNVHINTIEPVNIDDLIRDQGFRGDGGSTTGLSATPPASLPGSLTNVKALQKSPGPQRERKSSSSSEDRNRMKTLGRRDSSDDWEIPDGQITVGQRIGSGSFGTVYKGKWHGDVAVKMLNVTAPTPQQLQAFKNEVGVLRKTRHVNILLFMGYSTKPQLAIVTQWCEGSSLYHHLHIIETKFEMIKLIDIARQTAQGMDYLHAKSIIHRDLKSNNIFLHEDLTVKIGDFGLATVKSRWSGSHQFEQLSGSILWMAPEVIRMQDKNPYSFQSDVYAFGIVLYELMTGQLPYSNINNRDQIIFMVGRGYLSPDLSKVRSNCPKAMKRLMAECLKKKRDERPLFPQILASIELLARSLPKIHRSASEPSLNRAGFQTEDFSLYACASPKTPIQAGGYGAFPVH
Sequence of UniProt P43403 (whole entry, looked up): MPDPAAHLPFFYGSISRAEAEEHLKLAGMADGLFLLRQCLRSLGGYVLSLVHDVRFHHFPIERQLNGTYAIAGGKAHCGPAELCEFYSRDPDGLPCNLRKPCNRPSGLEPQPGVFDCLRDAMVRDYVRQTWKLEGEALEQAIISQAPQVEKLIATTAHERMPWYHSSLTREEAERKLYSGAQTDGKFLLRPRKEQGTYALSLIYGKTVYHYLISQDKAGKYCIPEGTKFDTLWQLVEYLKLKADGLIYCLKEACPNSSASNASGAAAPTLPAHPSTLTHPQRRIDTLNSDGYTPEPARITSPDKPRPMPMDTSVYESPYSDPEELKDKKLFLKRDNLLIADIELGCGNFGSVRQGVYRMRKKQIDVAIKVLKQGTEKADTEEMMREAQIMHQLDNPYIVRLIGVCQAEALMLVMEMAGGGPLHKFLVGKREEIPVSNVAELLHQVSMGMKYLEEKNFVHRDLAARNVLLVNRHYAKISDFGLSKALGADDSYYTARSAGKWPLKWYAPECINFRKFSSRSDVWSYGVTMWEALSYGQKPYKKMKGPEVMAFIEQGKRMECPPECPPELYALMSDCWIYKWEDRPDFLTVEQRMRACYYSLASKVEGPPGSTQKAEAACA
Sequence of UniProt Q13188 (whole entry, looked up): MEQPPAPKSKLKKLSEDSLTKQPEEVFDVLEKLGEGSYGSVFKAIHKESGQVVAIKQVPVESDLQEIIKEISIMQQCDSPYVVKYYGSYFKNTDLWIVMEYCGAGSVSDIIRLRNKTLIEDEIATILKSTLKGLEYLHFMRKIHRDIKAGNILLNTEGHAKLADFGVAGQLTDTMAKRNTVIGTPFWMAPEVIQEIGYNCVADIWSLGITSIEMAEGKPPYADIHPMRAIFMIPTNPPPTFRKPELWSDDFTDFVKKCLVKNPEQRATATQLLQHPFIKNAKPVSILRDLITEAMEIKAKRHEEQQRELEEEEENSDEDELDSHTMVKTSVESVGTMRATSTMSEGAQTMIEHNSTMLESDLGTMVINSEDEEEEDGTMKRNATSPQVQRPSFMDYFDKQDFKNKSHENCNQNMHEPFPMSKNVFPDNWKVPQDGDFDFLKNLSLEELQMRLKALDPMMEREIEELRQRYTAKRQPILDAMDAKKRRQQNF
Sequence of UniProt Q00534 (whole entry, looked up): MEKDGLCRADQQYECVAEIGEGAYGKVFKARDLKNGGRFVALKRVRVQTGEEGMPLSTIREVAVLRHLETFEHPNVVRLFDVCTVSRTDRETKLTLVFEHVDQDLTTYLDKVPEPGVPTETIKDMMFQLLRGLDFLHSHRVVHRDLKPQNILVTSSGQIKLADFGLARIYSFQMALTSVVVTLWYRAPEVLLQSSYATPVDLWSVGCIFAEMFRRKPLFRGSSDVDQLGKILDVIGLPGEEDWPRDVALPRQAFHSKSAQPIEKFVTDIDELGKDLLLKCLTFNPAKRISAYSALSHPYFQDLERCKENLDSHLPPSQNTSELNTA

Set 1 — observed: enzyme activity; action: inhibitor; concentration: 0.5 µM; reference: control
SMILES: COC[C@H]1OC(=O)c2coc3c2[C@@]1(C)C1=C(C3=O)[C@@H]2CCC(=O)[C@@]2(C)C[C@H]1OC(C)=O
target | remaining activity [%]
Calcium/calmodulin-dependent protein kinase type II subunit alpha (CAMK2A, Homo sapiens, UniProt Q9UQM7) | 97.1
Serine/threonine-protein kinase B-raf (BRAF, Homo sapiens, UniProt P15056) | 96.4
Serine/threonine-protein kinase 4 (STK4, Homo sapiens, UniProt Q13043) | 89.6
High affinity nerve growth factor receptor (NTRK1, Homo sapiens, UniProt P04629) | 97.9
Serine/threonine-protein kinase 3 (STK3, Homo sapiens, UniProt Q13188) | 79.5
Serine/threonine-protein kinase haspin (HASPIN, Homo sapiens, UniProt Q8TF76) | 88.3
Serine/threonine-protein kinase pim-3 (PIM3, Homo sapiens, UniProt Q86V86) | 93
Protein-tyrosine kinase 6 (PTK6, Homo sapiens, UniProt Q13882) | 81.7
Focal adhesion kinase 1 (PTK2, Homo sapiens, UniProt Q05397) | 98.2
Inhibitor of nuclear factor kappa-B kinase subunit alpha (CHUK, Homo sapiens, UniProt O15111) | 106
Tyrosine-protein kinase ZAP-70 (ZAP70, Homo sapiens, UniProt P43403) | 91.6
Platelet-derived growth factor receptor alpha (PDGFRA, Homo sapiens, UniProt P16234) | 97.4
Cyclin-dependent kinase 6, with cyclin D1 (CDK6, Homo sapiens, UniProt Q00534) | 90.1
SRSF protein kinase 2 (SRPK2, Homo sapiens, UniProt P78362) | 85.4
Tyrosine-protein kinase SYK (SYK, Homo sapiens, UniProt P43405) | 107
Mitogen-activated protein kinase kinase kinase 7 (MAP3K7, Homo sapiens, UniProt O43318) | 97.2
Aurora kinase B (AURKB, Homo sapiens, UniProt Q96GD4) | 94.2
Dual specificity protein kinase TTK (TTK, Homo sapiens, UniProt P33981) | 98.2

Set 2 — observed: enzyme activity; action: inhibitor; concentration: 10 µM
Target: Calcium/calmodulin-dependent protein kinase type II subunit alpha (CAMK2A, Homo sapiens, UniProt Q9UQM7)
Compound | inhibition
CCOC(=O)[C@H](Cc1ccc(F)cc1)NC(=O)[C@@H](N)Cc1ccc(N(CCCl)CCCl)cc1 | -7%
CC(C)[N+](C)(CCC(C(N)=O)(c1ccccc1)c1ccccc1)C(C)C | -10%
NCC(O)c1ccc(O)cc1 (stereo not drawn) | -38%
CC(C)(O)[C@@H]1[C@H]2OC(=O)[C@@H]1[C@]1(O)C[C@H]3O[C@]34C(=O)O[C@H]2[C@]14C | -1%
COC[C@@]12CC[C@H](OC)[C@@]34[C@@H]5C[C@@]6(O)[C@H](OC(=O)c7ccccc7)[C@@H]5[C@@](OC(C)=O)([C@@H]([C@H](OC)[C@H]13)[C@H]4N(C)C2)[C@@H](O)[C@@H]6OC | -70%
CC(=O)Oc1ccc(/C=C/c2cc(OC(C)=O)cc(OC(C)=O)c2)cc1 | 30%
C[C@@H](NC(=O)[C@@H](N)Cc1ccc(O)cc1)C(=O)N[C@@H](Cc1ccccc1)C(=O)NCC(=O)N[C@@H](Cc1ccc(O)cc1)C(=O)N1CCC[C@H]1C(=O)N[C@@H](CO)C(N)=O | 3%
C[C@]12CC[C@H](O)C[C@H]1CC[C@@H]1[C@@H]2C(=O)[C@H](O)[C@]2(C)[C@@H](c3ccc(=O)oc3)CC[C@]12O | 21%

Set 3 — observed: RNA clamping; method: fluorescence polarization; concentration: concentration not given; with: FAM-labelled poly r(AG)8 RNA
Target: Eukaryotic initiation factor 4A-III (Homo sapiens, UniProt P38919)
Sequence of UniProt P38919 (whole entry, looked up): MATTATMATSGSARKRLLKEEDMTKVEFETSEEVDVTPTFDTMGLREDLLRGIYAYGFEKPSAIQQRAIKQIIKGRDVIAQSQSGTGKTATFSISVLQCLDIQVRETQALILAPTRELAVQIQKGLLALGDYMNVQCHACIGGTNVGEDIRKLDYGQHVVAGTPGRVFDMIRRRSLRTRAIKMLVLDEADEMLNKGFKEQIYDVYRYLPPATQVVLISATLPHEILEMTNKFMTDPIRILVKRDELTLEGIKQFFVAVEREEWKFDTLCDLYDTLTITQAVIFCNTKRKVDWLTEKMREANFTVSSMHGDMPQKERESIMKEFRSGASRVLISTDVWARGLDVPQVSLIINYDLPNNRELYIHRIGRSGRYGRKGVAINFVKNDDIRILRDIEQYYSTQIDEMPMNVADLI
SMILES | fluorescence polarization change
COc1cc(OC)c2c(c1)O[C@@]1(c3ccc(Br)cc3)[C@H](c3ccccc3)[C@@H](C(=O)N(C)C)[C@@H](O)[C@@]21O | 36.1 mP
COCCN[C@]12c3c(OC)cc(OC)cc3O[C@@]1(c1ccc(OC)cc1)[C@H](c1ccccc1)[C@@H](C(=O)N(C)C)[C@H]2O | 7.9 mP
CONC(=O)[C@H]1[C@@H](O)[C@@]2(O)c3c(OC)cc(OC)cc3O[C@@]2(c2ccc(Br)cc2)[C@@H]1c1ccccc1 | 50.9 mP and 2.4 mP and 58.2 mP
COc1ccc([C@@]23Oc4cc(OC)cc(OC)c4[C@]2(OC)c2nc(-c4ccccc4)nc(OC)c2[C@H]3c2ccccc2)cc1 | 3.4 mP
COC(=O)[C@@H]1[C@@H](c2ccccc2)[C@]2(c3ccc(OC)cc3)Oc3cc(OC)cc(OC)c3[C@@]23NC(C(C)(C)C)=N[C@@]13O | 24.9 mP
COCCN[C@]12c3c(OC)cc(OC)cc3O[C@@]1(c1ccc(OC)cc1)[C@H](c1ccccc1)C[C@@H]2O | 5.9 mP
COc1ccc(-c2nc3c(c(=O)[nH]2)[C@@H](c2ccccc2)[C@]2(c4ccc(OC)cc4)Oc4cc(OC)cc(OC)c4[C@]32O)cc1 | -3.2 mP and 29.9 mP

Set 4 — cell line: mouse MPNST tumor cells; method: high-content nuclear imaging; measured: cell number; concentration: 10 µM; time: 12 h; setting: mean of 2 replicates; reference: plate mean; direction: higher = more cells
Compound | nuclei count
OC(CNc1ccccc1)Cn1c2ccc(Br)cc2c2cc(Br)ccc21 (stereo not drawn) | -0.617 z-score
CC(C)C[C@H]1C(=O)N2CCC[C@H]2[C@]2(O)O[C@](NC(=O)[C@@H]3C=C4c5cccc6[nH]c(Br)c(c56)C[C@H]4N(C)C3)(C(C)C)C(=O)N12 | 5.62 z-score and 3.4 z-score
C[C@@H]1CC[C@H]2[C@@H](C)C(=O)O[C@@H]3O[C@@]4(C)CC[C@@H]1[C@]32OO4 | 0.847 z-score and 3.02 z-score
CN1[C@@H]2CC[C@H]1CC(OC(=O)N1Cc3ccccc3NC1=O)C2 (stereo partly drawn) | -0.289 z-score
CCCOc1ccc2[nH]cc(C3=CCNCC3)c2n1 | 3.67 z-score
Nc1ccc(Oc2ccc(C(c3ccc(Oc4ccc(N)cc4)cc3)(C(F)(F)F)C(F)(F)F)cc2)cc1 | -1.89 z-score
C#C[C@]1(O)CC[C@H]2[C@@H]3CCC4=CC(=O)CC[C@]4(C)[C@H]3CC[C@@]21C | 3.54 z-score
CN1[C@@H]2C[C@@H](OC(=O)[C@H](CO)c3ccccc3)C[C@H]1[C@@H]1O[C@@H]12 | 1.23 z-score
O=C(O)C1=CCCN(CCOC(c2ccc(C(F)(F)F)cc2)c2ccc(C(F)(F)F)cc2)C1 | 1.44 z-score

Repeated from above (set 2):
Compound | inhibition
C[C@]12CC[C@H](O)C[C@H]1CC[C@@H]1[C@@H]2C(=O)[C@H](O)[C@]2(C)[C@@H](c3ccc(=O)oc3)CC[C@]12O | 21%
NCC(O)c1ccc(O)cc1 (stereo not drawn) | -38%
CC(C)[N+](C)(CCC(C(N)=O)(c1ccccc1)c1ccccc1)C(C)C | -10%
CCOC(=O)[C@H](Cc1ccc(F)cc1)NC(=O)[C@@H](N)Cc1ccc(N(CCCl)CCCl)cc1 | -7%
C[C@@H](NC(=O)[C@@H](N)Cc1ccc(O)cc1)C(=O)N[C@@H](Cc1ccccc1)C(=O)NCC(=O)N[C@@H](Cc1ccc(O)cc1)C(=O)N1CCC[C@H]1C(=O)N[C@@H](CO)C(N)=O | 3%
